Results of several laboratories.
A part holds a random share of what one study measured.
UniProt Q9UPE1, sequence (whole entry, looked up): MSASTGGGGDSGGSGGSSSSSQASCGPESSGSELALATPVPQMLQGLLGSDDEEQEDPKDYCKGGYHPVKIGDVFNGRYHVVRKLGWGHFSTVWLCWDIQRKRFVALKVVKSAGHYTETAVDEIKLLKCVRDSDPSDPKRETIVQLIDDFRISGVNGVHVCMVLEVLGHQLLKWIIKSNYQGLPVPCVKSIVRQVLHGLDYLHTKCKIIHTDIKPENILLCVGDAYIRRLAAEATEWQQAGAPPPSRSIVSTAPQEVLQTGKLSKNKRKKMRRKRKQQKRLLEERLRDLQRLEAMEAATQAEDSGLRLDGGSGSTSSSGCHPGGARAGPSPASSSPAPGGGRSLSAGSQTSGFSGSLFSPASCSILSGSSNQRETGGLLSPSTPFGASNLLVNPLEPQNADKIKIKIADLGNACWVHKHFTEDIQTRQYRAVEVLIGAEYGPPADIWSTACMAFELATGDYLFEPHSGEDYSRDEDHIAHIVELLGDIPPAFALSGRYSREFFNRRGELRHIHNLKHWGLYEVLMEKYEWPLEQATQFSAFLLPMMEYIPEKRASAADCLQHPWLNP
UniProt Q9HBY8, sequence (whole entry, looked up): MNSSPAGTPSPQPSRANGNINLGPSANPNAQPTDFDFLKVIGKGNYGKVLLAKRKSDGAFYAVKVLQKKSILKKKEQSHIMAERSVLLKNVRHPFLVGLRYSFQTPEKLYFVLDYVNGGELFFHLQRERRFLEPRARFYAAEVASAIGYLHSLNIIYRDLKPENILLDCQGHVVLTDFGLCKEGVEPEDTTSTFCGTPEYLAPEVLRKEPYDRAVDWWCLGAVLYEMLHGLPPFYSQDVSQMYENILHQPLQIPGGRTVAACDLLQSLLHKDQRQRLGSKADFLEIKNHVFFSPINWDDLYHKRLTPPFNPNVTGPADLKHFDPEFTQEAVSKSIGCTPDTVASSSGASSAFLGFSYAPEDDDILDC
UniProt Q14004, sequence (whole entry, looked up): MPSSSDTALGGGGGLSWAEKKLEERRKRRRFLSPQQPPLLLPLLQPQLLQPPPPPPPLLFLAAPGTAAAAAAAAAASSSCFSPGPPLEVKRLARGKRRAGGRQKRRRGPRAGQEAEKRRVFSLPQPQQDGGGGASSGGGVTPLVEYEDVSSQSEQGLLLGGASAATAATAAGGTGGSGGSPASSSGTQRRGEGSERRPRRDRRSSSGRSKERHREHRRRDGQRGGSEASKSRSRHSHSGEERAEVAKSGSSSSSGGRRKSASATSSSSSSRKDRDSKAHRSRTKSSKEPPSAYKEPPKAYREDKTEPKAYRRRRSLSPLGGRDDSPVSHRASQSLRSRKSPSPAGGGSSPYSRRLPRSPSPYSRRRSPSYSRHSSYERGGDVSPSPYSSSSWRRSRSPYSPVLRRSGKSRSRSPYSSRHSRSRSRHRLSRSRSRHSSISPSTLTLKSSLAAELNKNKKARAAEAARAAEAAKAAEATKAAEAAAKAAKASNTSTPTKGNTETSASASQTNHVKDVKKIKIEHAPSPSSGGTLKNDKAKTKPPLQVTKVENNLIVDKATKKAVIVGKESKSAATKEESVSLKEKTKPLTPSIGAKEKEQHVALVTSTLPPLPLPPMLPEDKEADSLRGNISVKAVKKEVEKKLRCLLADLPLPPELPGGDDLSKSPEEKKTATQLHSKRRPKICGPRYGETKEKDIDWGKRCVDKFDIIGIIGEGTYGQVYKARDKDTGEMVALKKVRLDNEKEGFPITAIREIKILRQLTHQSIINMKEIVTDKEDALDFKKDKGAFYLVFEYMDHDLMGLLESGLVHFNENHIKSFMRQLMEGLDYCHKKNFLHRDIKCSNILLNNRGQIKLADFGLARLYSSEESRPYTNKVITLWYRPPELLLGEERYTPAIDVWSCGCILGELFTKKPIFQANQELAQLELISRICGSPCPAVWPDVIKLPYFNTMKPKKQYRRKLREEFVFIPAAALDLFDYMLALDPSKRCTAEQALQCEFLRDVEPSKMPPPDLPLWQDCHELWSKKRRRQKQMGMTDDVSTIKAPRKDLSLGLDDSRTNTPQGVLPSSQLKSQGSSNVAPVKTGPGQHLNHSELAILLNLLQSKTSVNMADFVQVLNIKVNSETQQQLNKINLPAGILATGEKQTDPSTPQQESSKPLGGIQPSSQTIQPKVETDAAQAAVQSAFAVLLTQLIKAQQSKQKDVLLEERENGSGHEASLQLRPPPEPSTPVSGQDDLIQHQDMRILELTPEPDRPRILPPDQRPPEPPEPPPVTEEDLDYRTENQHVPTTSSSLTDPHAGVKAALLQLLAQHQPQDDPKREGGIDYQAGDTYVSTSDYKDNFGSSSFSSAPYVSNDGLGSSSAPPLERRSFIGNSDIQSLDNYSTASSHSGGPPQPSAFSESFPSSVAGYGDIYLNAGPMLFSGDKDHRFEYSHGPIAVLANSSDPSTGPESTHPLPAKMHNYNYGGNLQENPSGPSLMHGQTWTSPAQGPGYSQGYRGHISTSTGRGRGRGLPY
UniProt P29597, sequence (whole entry, looked up): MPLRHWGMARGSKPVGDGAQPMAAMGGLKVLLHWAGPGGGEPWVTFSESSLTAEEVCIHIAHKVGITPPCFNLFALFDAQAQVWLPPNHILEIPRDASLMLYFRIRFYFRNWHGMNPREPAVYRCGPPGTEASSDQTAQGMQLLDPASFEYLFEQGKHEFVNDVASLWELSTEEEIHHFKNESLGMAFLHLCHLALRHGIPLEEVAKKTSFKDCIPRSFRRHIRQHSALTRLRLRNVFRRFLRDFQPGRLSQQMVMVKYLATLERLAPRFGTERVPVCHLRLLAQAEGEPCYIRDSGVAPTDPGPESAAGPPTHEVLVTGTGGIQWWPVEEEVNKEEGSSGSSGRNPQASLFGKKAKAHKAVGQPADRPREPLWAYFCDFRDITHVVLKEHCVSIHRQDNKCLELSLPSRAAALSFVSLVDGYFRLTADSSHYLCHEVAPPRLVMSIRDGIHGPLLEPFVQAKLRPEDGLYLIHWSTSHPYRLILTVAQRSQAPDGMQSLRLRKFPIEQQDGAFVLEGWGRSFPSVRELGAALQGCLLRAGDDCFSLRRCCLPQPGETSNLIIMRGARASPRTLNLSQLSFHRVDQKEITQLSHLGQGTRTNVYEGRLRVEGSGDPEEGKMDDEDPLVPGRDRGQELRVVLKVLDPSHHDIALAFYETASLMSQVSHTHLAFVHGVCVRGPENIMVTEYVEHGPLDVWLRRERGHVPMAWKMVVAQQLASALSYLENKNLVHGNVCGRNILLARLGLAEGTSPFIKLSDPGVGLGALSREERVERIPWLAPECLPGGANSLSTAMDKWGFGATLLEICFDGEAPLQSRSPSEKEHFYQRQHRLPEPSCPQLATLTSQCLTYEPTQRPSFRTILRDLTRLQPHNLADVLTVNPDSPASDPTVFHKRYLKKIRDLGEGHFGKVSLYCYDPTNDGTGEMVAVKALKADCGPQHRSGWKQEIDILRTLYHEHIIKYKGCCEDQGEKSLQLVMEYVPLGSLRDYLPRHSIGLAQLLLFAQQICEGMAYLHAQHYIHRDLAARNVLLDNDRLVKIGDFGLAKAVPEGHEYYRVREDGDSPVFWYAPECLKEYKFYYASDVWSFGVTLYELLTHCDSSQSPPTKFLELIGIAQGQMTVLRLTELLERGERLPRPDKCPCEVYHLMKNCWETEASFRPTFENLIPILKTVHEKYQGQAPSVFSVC
UniProt P48729, sequence (whole entry, looked up): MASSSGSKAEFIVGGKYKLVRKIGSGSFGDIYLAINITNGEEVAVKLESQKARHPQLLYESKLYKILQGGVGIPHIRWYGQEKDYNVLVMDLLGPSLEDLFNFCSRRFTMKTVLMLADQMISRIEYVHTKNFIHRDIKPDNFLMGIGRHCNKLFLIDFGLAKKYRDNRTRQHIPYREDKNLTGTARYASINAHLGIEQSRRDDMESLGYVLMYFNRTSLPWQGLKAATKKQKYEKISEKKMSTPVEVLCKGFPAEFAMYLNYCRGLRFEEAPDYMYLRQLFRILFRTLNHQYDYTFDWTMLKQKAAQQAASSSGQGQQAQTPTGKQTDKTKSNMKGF
UniProt P54646, sequence (whole entry, looked up): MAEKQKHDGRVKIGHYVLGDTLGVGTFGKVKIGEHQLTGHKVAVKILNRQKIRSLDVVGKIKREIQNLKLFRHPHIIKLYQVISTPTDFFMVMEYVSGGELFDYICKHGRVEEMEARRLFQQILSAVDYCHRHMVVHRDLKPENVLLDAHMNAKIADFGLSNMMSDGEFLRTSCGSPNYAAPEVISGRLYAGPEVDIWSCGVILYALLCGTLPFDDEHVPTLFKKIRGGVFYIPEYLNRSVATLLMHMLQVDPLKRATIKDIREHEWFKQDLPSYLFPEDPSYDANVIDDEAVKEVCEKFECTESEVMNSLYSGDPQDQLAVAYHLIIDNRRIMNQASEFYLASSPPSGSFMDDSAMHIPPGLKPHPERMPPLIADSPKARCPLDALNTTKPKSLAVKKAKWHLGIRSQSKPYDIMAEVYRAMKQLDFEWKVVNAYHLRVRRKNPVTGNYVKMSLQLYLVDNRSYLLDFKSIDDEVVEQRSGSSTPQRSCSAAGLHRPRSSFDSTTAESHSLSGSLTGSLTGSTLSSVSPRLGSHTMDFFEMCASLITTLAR

Sample 1
Target: Aurora kinase A (AURKA, Homo sapiens, UniProt O14965)
UniProt O14965, sequence (whole entry, looked up): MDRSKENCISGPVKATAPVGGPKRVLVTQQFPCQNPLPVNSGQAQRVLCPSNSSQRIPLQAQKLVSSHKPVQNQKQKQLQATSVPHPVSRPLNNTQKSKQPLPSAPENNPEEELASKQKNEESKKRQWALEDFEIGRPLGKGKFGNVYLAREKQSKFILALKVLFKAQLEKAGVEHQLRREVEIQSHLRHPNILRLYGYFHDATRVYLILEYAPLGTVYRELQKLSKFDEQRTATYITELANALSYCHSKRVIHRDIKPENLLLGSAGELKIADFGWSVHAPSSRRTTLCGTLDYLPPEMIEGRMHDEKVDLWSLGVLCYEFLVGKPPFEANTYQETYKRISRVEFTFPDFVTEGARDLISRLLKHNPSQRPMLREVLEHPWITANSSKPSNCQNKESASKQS
Read-out: enzyme activity
Mode: inhibitor
Concentration: 0.5 µM
Baseline: control
Compound	remaining activity [%]
Cc1nc(-c2ccccc2)c(-c2ccncc2)o1	91.2
Nc1[nH]nc2nc3ccccc3nc12	111
COc1ccc(C(=O)Nc2sc3c(c2C(N)=O)CCCC3)cc1OC	97.9
CO[C@H]1C[C@@H]2CC[C@@H](C)[C@@](O)(O2)C(=O)C(=O)N2CCCC[C@H]2C(=O)O[C@H]([C@H](C)C[C@@H]2CC[C@@H](O)[C@H](OC)C2)CC(=O)[C@H](C)/C=C(\C)[C@@H](O)[C@@H](OC)C(=O)[C@H](C)C[C@H](C)/C=C/C=C/C=C/1C	81.5
COc1cc2ncnc(Nc3ccc(Oc4ccccc4)cc3)c2cc1OC	79.2
O=C1NC(=O)C(c2cn(CCCn3ccnc3)c3ccccc23)=C1Nc1ccccc1	78.8
COc1ccc(OC)c2c(=S)c3ccccc3[nH]c12	116
Cc1ccc(Nc2nccc(N(C)c3ccc4c(C)n(C)nc4c3)n2)cc1S(N)(=O)=O	38.4
O=S(=O)(c1cccc2cnccc12)N1CCCNCC1	101
CN(C)c1ccc(C=C2C(=O)Nc3ccccc32)cc1	104

Sample 2
Structure (SMILES): C=CC(=O)N1CCC[C@@H](n2nc(-c3ccc(Oc4ccccc4)cc3)c3c(N)ncnc32)C1
Mode: inhibitor
Concentration: 1 µM
target	read-out	inhibition
Casein kinase I isoform alpha (CSNK1A1, Homo sapiens, UniProt P48729)	enzyme activity	19%
Mitogen-activated protein kinase kinase kinase 12 (MAP3K12, Homo sapiens, UniProt Q12852)	enzyme activity	16%
Interleukin-1 receptor-associated kinase 3 (IRAK3, Homo sapiens, UniProt Q9Y616)	–	26%
Dual specificity testis-specific protein kinase 1 (TESK1, Homo sapiens, UniProt Q15569)	enzyme activity	2%
Tyrosine-protein kinase TXK (TXK, Homo sapiens, UniProt P42681)	enzyme activity	95%
Cyclin-dependent kinase 13 (CDK13, Homo sapiens, UniProt Q14004)	enzyme activity	39%
Non-receptor tyrosine-protein kinase TYK2, JH1 domain (TYK2, Homo sapiens, UniProt P29597)	–	4%

Sample 3
SMILES: CS(=O)(=O)N1CCCC(NC(=O)[C@H](CCC2CCCCC2)NC(=O)c2ccc(CNc3ncnc4c3nnn4-c3ccccc3)cc2)C1 (stereo partly shown)
Concentration: 0.1 µM
target	read-out	technique	remaining binding
Dual specificity tyrosine-phosphorylation-regulated kinase 1B (DYRK1B, Homo sapiens, UniProt Q9Y463)	cell-free assay	competition with immobilised ligand	100%
5'-AMP-activated protein kinase catalytic subunit alpha-2 (PRKAA2, Homo sapiens, UniProt P54646)	cell-free assay	competition with immobilised ligand	100%
Mitogen-activated protein kinase kinase kinase kinase 2 (MAP4K2, Homo sapiens, UniProt Q12851)	cell-free assay	competition with immobilised ligand	100%
SRSF protein kinase 3 (SRPK3, Homo sapiens, UniProt Q9UPE1)	cell-free assay	competition with immobilised ligand	100%
Serine/threonine-protein kinase Sgk2 (SGK2, Homo sapiens, UniProt Q9HBY8)	cell-free assay	competition with immobilised ligand	100%
Serine/threonine-protein kinase SIK1 (SIK1, Homo sapiens, UniProt P57059)	–	competition binding	100%
Aurora kinase C (AURKC, Homo sapiens, UniProt Q9UQB9)	cell-free assay	competition with immobilised ligand	78%
Serine/threonine-protein kinase 38 (STK38, Homo sapiens, UniProt Q15208)	cell-free assay	competition with immobilised ligand	83%
Tyrosine-protein kinase ABL1, non-phosphorylated (ABL1, Homo sapiens, UniProt P00519, F317L)	cell-free assay	competition with immobilised ligand	100%

Sample 4
Cell line: 451Lu
Compound	IC50
CN1CCc2c(c3ccccc3n2Cc2ccccc2)C1	> 120 µM
CCCCCCCCNC(C)C(O)c1ccc(SC(C)C)cc1 (stereo not shown)	14.8 µM
CC(C)c1ccc2c(c1)CC[C@H]1[C@](C)(CN)CCC[C@]21C	6.5 µM
Clc1ccccc1CNCC1CCC(CNCc2ccccc2Cl)CC1 (stereo not shown)	49.4 µM
CC(C)(C)c1ccc(C(O)CCCN2CCC(C(O)(c3ccccc3)c3ccccc3)CC2)cc1 (stereo not shown)	11.8 µM

For quick reference, copied from above (sample 3):
target	read-out	technique	remaining binding
Serine/threonine-protein kinase 38 (STK38, Homo sapiens, UniProt Q15208)	cell-free assay	competition with immobilised ligand	83%
Tyrosine-protein kinase ABL1, non-phosphorylated (ABL1, Homo sapiens, UniProt P00519, F317L)	cell-free assay	competition with immobilised ligand	100%
SRSF protein kinase 3 (SRPK3, Homo sapiens, UniProt Q9UPE1)	cell-free assay	competition with immobilised ligand	100%
